Measurements gathered from unrelated publications.
Each line is one published result; not all experiments were run side by side. Values joined by “and” are separate records of one study, mostly repeats; a detail may differ. Numbers after ± are the reported error. Values after ≈ are worked out from the molar mass of the structure shown.

SMILES | target or system | test | system | setting | how to read | quantity | value
Cc1cccc2c1N(C(=O)n1ccnn1)CC2 | Arabidopsis thaliana |  | wild type, seeds | 10 µM, high ambient temperature |  | germination rate | 67.9% and 77.4% and 75.6% and 78.9% and 7.5% and 80.6%
CC(O)CNCC(C)O.O=C(O)C(Cl)Cl (stereo not shown) | Solanum nigrum | herbicidal activity |  | 15 mg/mL, 21 days, post-emergence greenhouse |  | inhibition | 0%
CC1(C)[C@H](NC(=O)/C(=N\OCc2cc(=O)c(O)cn2O)c2csc(N)n2)C(=O)N1OS(=O)(=O)O | Klebsiella pneumoniae | agar dilution | 16-14 ESBL |  |  | MIC | 0.5 µg/mL (≈ 0.964 µM)
C=C(NC(=O)c1csc(-c2nc3c(cc2O)-c2nc(cs2)C(=O)NC(C(C)O)C(=O)NC(=C(C)OC)c2nc(cs2)C(=O)NC2c4nc(cs4)C(=O)NC(COC(=O)c4c5c6c(cccc6n4O)COC(=O)C(OC4CC(C)(O)C(N(C)C)C(C)O4)C2OC5)c2nc-3cs2)n1)C(N)=O (stereo not shown) | Staphylococcus epidermidis | microbial growth, broth dilution |  | clinical isolate |  | MIC90 | 0.0625 µg/mL (≈ 0.0435 µM)
Nc1nc(-c2ccccc2)nc2[nH]nc(Nc3ccccc3C(F)(F)F)c12 | rhinovirus B48 | viral cytopathic effect | HeLa |  |  | IC50 | 54.6 µM
O=C(c1ccc([C@H]2[C@@H](F)[C@@H](F)C[C@@H](F)[C@H]2F)cc1)N1CCCC1 |  | liver microsome stability | dog liver microsomes | 1 µM |  | hepatic clearance | 10 mL/min/kg
Nc1ncnc2[nH]nc(Nc3ccc(F)c(F)c3)c12 | rhinovirus B48 | viral cytopathic effect | HeLa |  |  | IC50 | 22.3 µM
CC[C@H](C)CCCCC(=O)N[C@@H](CCN)C(=O)N[C@H](C(=O)N[C@@H](CCN)C(=O)N[C@H]1CCNC(=O)[C@H]([C@@H](C)O)NC(=O)[C@H](CCN)NC(=O)[C@H](CCN)NC(=O)[C@H](CC(C)C)NC(=O)[C@@H](CC(C)C)NC(=O)[C@H](CCN)NC1=O)[C@@H](C)O | Klebsiella pneumoniae |  | BAA-2784, BALB/c mouse peritonitis, peritoneal fluid | dose not given |  | bacterial load | 9.33 log CFU and 9.86 log CFU and 9.53 log CFU and 9.49 log CFU and 9.52 log CFU
CC[n+]1cccc2cc(/C=N/NC(=O)c3cncc(C(=O)N/N=C/c4ccc5c(ccc[n+]5CC)c4)n3)ccc21 | 22CTA telomeric G4-DNA antiparallel | FRET melting |  | 1 µM, K10 buffer, DNA 0.2 µM, together with: ds26 10 µM |  | ΔTm | 13.5 ± 0.3 °C
CC(C)C[C@H](NC(=O)[C@H](Cc1ccc(O)cc1)NC(=O)[C@@H]1CCCN1C(=O)[C@H](CCCNC(=N)N)NC(=O)[C@@H]1CCCN1C(=O)[C@H](CCCCN)NC(=O)[C@H](CC(=O)O)NC(=O)[C@@H]1CCCN1C(=O)[C@H](CCCNC(=N)N)NC(=O)C1(N)CCCCC1)C(=O)N1CCC[C@H]1C(=O)N[C@@H](CCCNC(=N)N)C(=O)N1CCC[C@H]1C(=O)N[C@@H](CCCNC(=N)N)C(=O)N1CCC[C@H]1C(=O)N1CCC[C@H]1C(=O)N[C@@H](CCCNC(=N)N)C(=O)N1CCC[C@H]1C(=O)N[C@H](C(=O)N[C@@H](CCCNC(=N)N)C(=O)N[C@@H](CSc1c(F)c(F)c(SC[C@H](NC(=O)[C@H](CCCNC(=N)N)NC(=O)[C@@H](NC(=O)[C@@H]2CCCN2C(=O)[C@H](CCCNC(=N)N)NC(=O)[C@@H]2CCCN2C(=O)[C@@H]2CCCN2C(=O)[C@H](CCCNC(=N)N)NC(=O)[C@@H]2CCCN2C(=O)[C@H](CCCNC(=N)N)NC(=O)[C@@H]2CCCN2C(=O)[C@H](CC(C)C)NC(=O)[C@H](Cc2ccc(O)cc2)NC(=O)[C@@H]2CCCN2C(=O)[C@H](CCCNC(=N)N)NC(=O)[C@@H]2CCCN2C(=O)[C@H](CCCCN)NC(=O)[C@H](CC(=O)O)NC(=O)[C@@H]2CCCN2C(=O)[C@H](CCCNC(=N)N)NC(=O)C2(N)CCCCC2)C(C)C)C(=O)NN)c(F)c1F)C(=O)NN)C(C)C | Klebsiella pneumoniae | membrane disruption, propidium iodide uptake | 13883 | 90 min, 37 °C |  | MDC | 6.9 ± 0.2 µg/mL
c1ccc(CN2CCOCCOCCN(CCCCCCCCCCN3CCOCCOCCN(CCCCCCCCCCN4CCOCCOCCN(Cc5ccccc5)CCOCCOCC4)CCOCCOCC3)CCOCCOCC2)cc1 | Klebsiella pneumoniae |  | ATCC BAA-2146 | 2.5 µM, together with: tetracycline |  | tetracycline MIC | 900 ± 100 µM
CC(C)(C)NCC(SS(=O)(=O)O)c1ccccc1 (stereo not shown) | Schistosoma mansoni |  | mice | 600 mg/kg single dose, 1056 h, dosed day 1, perfused 44 | reference: vehicle | male worm burden reduction | -0.893%
COC1C=COC2(C)Oc3c(C)c(O)c4c(c3C2=O)C2=NC3(CCN(CC(C)C)CC3)NC2=C(NC(=O)C(C)=CC=CC(C)C(O)C(C)C(O)C(C)C(OC(=O)Nc2cccnn2)C1C)C4=O (stereo not shown) | Mycobacteroides abscessus | intracellular growth, visual read | THP-1 derived macrophages, ATCC 19977 |  |  | IC90 | 0.399 µM
CC(=O)O[C@@H]1[C@@H](OC(C)=O)[C@H](Sc2sc(C(=O)c3ccc(Br)cc3)c(N)c2-c2nc3ccccc3s2)OC[C@@H]1OC(C)=O | herpes simplex virus 1 | plaque reduction |  | non-toxic dose NG, mean over three titres |  | viral reduction | 40%
Nc1nc(-c2ccccc2)nc2[nH]nc(Nc3ccccc3F)c12 | rhinovirus B48 | viral cytopathic effect | HeLa |  |  | IC50 | 0.06 µM
CCCC(=O)C#Cc1ccc(F)c(F)c1 | Pseudomonas aeruginosa | RT-qPCR, item: phzC1 | biofilm cells | 10 µM, 24 h | reference: untreated | mRNA level | 52%

SMILES | target or system | test | system | setting | how to read | quantity | value
c1ccc(CN2CCOCCOCCN(CCCCCCCCN3CCOCCOCCN(CCCCCCCCN4CCOCCOCCN(Cc5ccccc5)CCOCCOCC4)CCOCCOCC3)CCOCCOCC2)cc1 | Klebsiella pneumoniae |  | ATCC BAA-2146 | half MIC, together with: ciprofloxacin |  | FIC index | 0.6
OC(Cn1cncn1)(Cn1cc(-[c-]2cccc2)nn1)c1ccc(F)cc1F.[Cl-].[Co+3].c1cc[cH-]c1 (racemic) | Candida glabrata | EUCAST |  |  |  | MIC50 | 100 µM
CC1(F)CN(C(=O)Cn2c(=O)c(C(=O)NCc3ccc(Cl)cc3)cc3nc(N4CCN(CCN)C4=O)cnc32)C1 | herpes simplex virus 1 | viral cytopathic effect | Vero | 120 h |  | EC50 | 1.87 µM
Cc1ccc(Nc2n[nH]c3nc(-c4ccncc4)nc(N)c23)cc1 | rhinovirus B48 | viral cytopathic effect | HeLa |  |  | IC50 | 130 µM
O=C(N/N=C/c1cc[n+](CC2CC2)c2ccccc12)c1cccc(C(=O)N/N=C/c2cc[n+](CC3CC3)c3ccccc23)n1 | 22CTA telomeric G4-DNA antiparallel | FRET melting |  | 1 µM, K10 buffer, DNA 0.2 µM |  | ΔTm | 19.9 ± 0.6 °C
Cc1cc(Cl)cc(S(C)=NC#N)c1NC(=O)c1cc(Br)nn1-c1ncccc1Cl (stereo not shown) | Spodoptera litura |  | Brassica oleracea field | 50 ppm, 168 h, 10% wettable powder |  | corrected larval mortality | 86.8%
Nc1nc(-c2ccncc2)nc2[nH]nc(Nc3ccc(F)cc3)c12 | rhinovirus B48 | viral cytopathic effect | HeLa |  |  | IC50 | 8.69 µM
CN(C)S(=O)(=O)c1ccc(S(=O)(=O)N2CCC(n3c(=O)[nH]c4ccccc43)CC2)cc1 | Klebsiella pneumoniae |  | ATCC 700603, mouse lung infection model, lung | 6 mg/kg, 24 h |  | lung bacterial burden | 5.65 log CFU and 4.55 log CFU and 4.1 log CFU and 6.14 log CFU
C=C1C(=O)OC2C1CCC(C)(O)C13C=CC(C)(C21)C1(C3)C(=O)OC2C3C(C)C(=O)CC3C(=C)CC(OC(C)=O)C21 (stereo not shown) | Danio rerio | Oil Red O staining |  | 2.5 and 10 µM, HFD-fed larvae NAFLD model |  | liver lipid droplets | decreased
NCCOCCO.O=C(O)C(Cl)Cl | Solanum nigrum | herbicidal activity |  | 15 mg/mL, 21 days, pre-emergence greenhouse |  | inhibition | 0%
c1ccc(CN2CCOCCOCCN(CCCCCCCCCCCCCCN3CCOCCOCCN(CCCCCCCCCCCCCCN4CCOCCOCCN(Cc5ccccc5)CCOCCOCC4)CCOCCOCC3)CCOCCOCC2)cc1 | Klebsiella pneumoniae | tetracycline MIC, checkerboard | ATCC BAA-2146 | quarter MIC, together with: tetracycline | reference: MIC alone over combination | fold enhancement | 3 fold
C=CCO/N=C(\C(=O)N[C@@H]1C(=O)N(OS(=O)(=O)O)C1(C)C)c1csc(N)n1 | Enterobacter aerogenes | agar dilution | ATCC 13048, susceptible |  |  | MIC | 1 µg/mL (≈ 2.38 µM)
Cc1cc(C(=O)Nc2nc3cccc(C)c3n2[C@H]2CCCCN(C(=O)/C=C/CN(C)C)C2)ccn1 | Trypanosoma brucei brucei | growth inhibition, CellTiter-Glo | Lister 427 bloodstream form | 48 h |  | EC50 | 0.085 µM
Nc1nc(-c2ccccc2)nc2[nH]nc(Nc3cccc(Cl)c3)c12 | rhinovirus B48 | viral cytopathic effect | HeLa |  |  | IC50 | 8.89 µM
C=C[C@]1(C)C[C@@H](OC(=O)CSc2ccc(NC(=O)c3ccco3)cc2)[C@]2(C)[C@H](C)CC[C@]3(CCC(=O)[C@H]32)[C@@H](C)[C@@H]1O | Mycoplasma gallisepticum |  | infected chickens, lung | intramuscular, 40 mg/kg daily x3, 72 h | reference: 0 h | lung mycoplasma load reduction | 2.03 log10 CFU/mL and 1.29 log10 CFU/mL and 2.8 log10 CFU/mL and 1.9 log10 CFU/mL and 1.57 log10 CFU/mL and 1.88 log10 CFU/mL and 2.25 log10 CFU/mL

Some of these lines once more:
SMILES | target or system | test | system | setting | how to read | quantity | value
CC1(C)[C@H](NC(=O)/C(=N\OCc2cc(=O)c(O)cn2O)c2csc(N)n2)C(=O)N1OS(=O)(=O)O | Klebsiella pneumoniae | agar dilution | 16-14 ESBL |  |  | MIC | 0.5 µg/mL (≈ 0.964 µM)
Cc1cccc2c1N(C(=O)n1ccnn1)CC2 | Arabidopsis thaliana |  | wild type, seeds | 10 µM, high ambient temperature |  | germination rate | 67.9% and 77.4% and 75.6% and 78.9% and 7.5% and 80.6%
